{"data": "Published values of several laboratories", "B1": "enzyme A172S/A173G/A497K/C179K/M174T/Q178P (Streptomyces platensis, UniProt A0A0A0V031); chain MQHTTIGDVLREHRRSHPGRTALVDGPVRLTWPELDDRVNRLAGSLAASGIGRGDRIMWLGQNSFRVYELIAAAGKLGAMVCVGYWRWAPPEMEFALRDFDPHLVVWQHQEIHETVARTREALGSDDTARWLRHDSAPQDPDGYEAFLAAGGLADPDLDIDPDSPVLVLYTSGTSGRPKGSLLSHTNLIAMATAAAWLGDIDHTTAFLNSGPMFHIGNHQFWGMPTLLMAGKNVIVRRVVAEEVRDLLVAEECTHAFLMPPTVAEIVRLNRDTGHDLSRLRATVAPHLWEGMATTDTSRFTRSGAAAGRGYGQTELSGFAVTAAYGGPAAGNAGRPGPGLTVRVLDTAGRECAVGEAGEICARGTVVHRGYWNRDEVNAHRFRSGWWHTTDLGRREPDGSLTFLGTTTRMLKSAAENIFPAEVENCIEQHPAVREAAVIGVPNTRWAQDVKAVVVLEPDAGVSEQEIIDHCRPRIASYKKPKSVAFAAALPRTVSGKRDYDALDKEYGGGGYPGAATLGPGR", "B2": "dmaW (Aspergillus fumigatus, UniProt Q50EL0); chain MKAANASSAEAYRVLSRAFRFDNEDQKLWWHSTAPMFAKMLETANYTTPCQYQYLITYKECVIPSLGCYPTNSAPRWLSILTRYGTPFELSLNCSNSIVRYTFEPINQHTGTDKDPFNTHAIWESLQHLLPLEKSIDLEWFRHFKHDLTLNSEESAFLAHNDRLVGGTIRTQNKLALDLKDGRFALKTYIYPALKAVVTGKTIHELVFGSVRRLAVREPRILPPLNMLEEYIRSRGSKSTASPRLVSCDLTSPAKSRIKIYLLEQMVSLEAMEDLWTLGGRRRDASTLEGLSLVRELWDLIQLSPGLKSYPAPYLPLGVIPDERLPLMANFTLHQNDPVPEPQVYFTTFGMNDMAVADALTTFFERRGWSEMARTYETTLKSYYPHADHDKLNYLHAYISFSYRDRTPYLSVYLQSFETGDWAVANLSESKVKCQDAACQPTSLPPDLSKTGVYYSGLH", "B3": "enzyme A172S/A173G/C179K/M174T/Q178P (Streptomyces platensis, UniProt A0A0A0V031); chain MQHTTIGDVLREHRRSHPGRTALVDGPVRLTWPELDDRVNRLAGSLAASGIGRGDRIMWLGQNSFRVYELIAAAGKLGAMVCVGYWRWAPPEMEFALRDFDPHLVVWQHQEIHETVARTREALGSDDTARWLRHDSAPQDPDGYEAFLAAGGLADPDLDIDPDSPVLVLYTSGTSGRPKGSLLSHTNLIAMATAAAWLGDIDHTTAFLNSGPMFHIGNHQFWGMPTLLMAGKNVIVRRVVAEEVRDLLVAEECTHAFLMPPTVAEIVRLNRDTGHDLSRLRATVAPHLWEGMATTDTSRFTRSGAAAGRGYGQTELSGFAVTAAYGGPAAGNAGRPGPGLTVRVLDTAGRECAVGEAGEICARGTVVHRGYWNRDEVNAHRFRSGWWHTTDLGRREPDGSLTFLGTTTRMLKSAAENIFPAEVENCIEQHPAVREAAVIGVPNTRWAQDVKAVVVLEPDAGVSEQEIIDHCRPRIASYKKPKSVAFAAALPRTVSGARDYDALDKEYGGGGYPGAATLGPGR", "note": "± gives the spread as reported.", "chain of UniProt P21729 (whole entry, looked up)": "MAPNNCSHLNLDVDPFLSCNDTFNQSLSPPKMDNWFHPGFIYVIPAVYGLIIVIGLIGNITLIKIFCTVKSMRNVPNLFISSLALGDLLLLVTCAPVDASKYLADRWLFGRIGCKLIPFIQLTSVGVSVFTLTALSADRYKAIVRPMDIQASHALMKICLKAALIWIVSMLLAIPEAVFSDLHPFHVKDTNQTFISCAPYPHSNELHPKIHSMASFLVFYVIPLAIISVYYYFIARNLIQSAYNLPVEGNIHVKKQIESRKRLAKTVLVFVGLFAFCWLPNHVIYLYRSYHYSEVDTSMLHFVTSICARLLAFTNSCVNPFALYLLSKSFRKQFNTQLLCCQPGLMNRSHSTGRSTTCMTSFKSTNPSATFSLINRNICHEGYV"}
{"Substance": "N=C(N)NCCC[C@@H]1NC(=O)[C@H](CCCCNC(=O)CNC(=O)CNC(=O)CNC(=O)CC[C@H](NC(=O)CCOCCOCCOCCOCCNC(=O)CC[C@H](NC(=O)CN2CCN(CC(=O)O)CCN(CC(=O)O)CCN(CC(=O)O)CC2)C(=O)NCCOCCOCCOCCOCCC(=O)N[C@@H](CCC(=O)NCC(=O)NCC(=O)NCC(=O)NCCCC[C@@H]2NC(=O)[C@@H](Cc3ccccc3)NC(=O)[C@H](CC(=O)O)NC(=O)CNC(=O)[C@H](CCCNC(=N)N)NC2=O)C(=O)NCC(=O)NCC(=O)NCC(=O)NCCCC[C@@H]2NC(=O)[C@@H](Cc3ccccc3)NC(=O)[C@H](CC(=O)O)NC(=O)CNC(=O)[C@H](CCCNC(=N)N)NC2=O)C(=O)NCC(=O)NCC(=O)NCC(=O)NCCCC[C@@H]2NC(=O)[C@@H](Cc3ccccc3)NC(=O)[C@H](CC(=O)O)NC(=O)CNC(=O)[C@H](CCCNC(=N)N)NC2=O)NC(=O)[C@@H](Cc2ccccc2)NC(=O)[C@H](CC(=O)O)NC(=O)CNC1=O [indium-111 labelled]", "system": "female athymic nude mice, muscle", "setting": "intravenous, 3 µCi, 24 h, U-87 MG glioma xenograft", "quantity": "tissue uptake", "value": "0.3 ± 0.16 %ID/g"}
{"Substance": "B1", "tested on": "C[C@@]12CCC[C@@](C)(C(=O)OP(=O)(O)OC[C@H]3O[C@@H](n4cnc5c(N)ncnc54)[C@H](O)[C@@H]3O)[C@H]1C[C@@H](O)[C@]13C[C@H]4C[C@H](O[C@@]4(C)C1)[C@@H]23", "assay": "steady-state kinetics", "setting": "pH 7.8, 25 °C", "quantity": "kcat/Km", "value": "2e+07 M⁻¹ s⁻¹"}
{"Substance": "N=C(N)NCCC[C@@H]1NC(=O)[C@H](CCCCNC(=O)CCOCCOCCOCCOCCNC(=O)CC[C@H](NC(=O)CCOCCOCCOCCOCCNC(=O)CC[C@H](NC(=O)CN2CCN(CC(=O)O)CCN(CC(=O)O)CCN(CC(=O)O)CC2)C(=O)NCCOCCOCCOCCOCCC(=O)N[C@@H](CCC(=O)NCCOCCOCCOCCOCCC(=O)NCCCC[C@@H]2NC(=O)[C@@H](Cc3ccccc3)NC(=O)[C@H](CC(=O)O)NC(=O)CNC(=O)[C@H](CCCNC(=N)N)NC2=O)C(=O)NCCOCCOCCOCCOCCC(=O)NCCCC[C@@H]2NC(=O)[C@@H](Cc3ccccc3)NC(=O)[C@H](CC(=O)O)NC(=O)CNC(=O)[C@H](CCCNC(=N)N)NC2=O)C(=O)NCCOCCOCCOCCOCCC(=O)NCCCC[C@@H]2NC(=O)[C@@H](Cc3ccccc3)NC(=O)[C@H](CC(=O)O)NC(=O)CNC(=O)[C@H](CCCNC(=N)N)NC2=O)NC(=O)[C@@H](Cc2ccccc2)NC(=O)[C@H](CC(=O)O)NC(=O)CNC1=O [indium-111 labelled]", "system": "athymic nude mice, female, U-87 MG glioma xenograft, tumour and blood", "setting": "intravenous, 24 h", "scale": "baseline: tumour over blood", "quantity": "tumour to tissue ratio", "value": "56.5 ± 10.8"}
{"Substance": "CCCNC(=O)[C@H](CC(C)C)NC(=O)[C@H](Cc1c[nH]cn1)NC(=O)CNC(=O)[C@@H](NC(=O)[C@H](C)NC(=O)[C@H](Cc1c[nH]c2ccccc12)NC(=O)[C@H](CCC(N)=O)NC(=O)[C@@H](Cc1ccccc1)NC(=O)CCCCCNC(=O)CN1CCN(CC(=O)O)CCN(CC(=O)O)CCN(CC(=O)O)CC1)C(C)C [indium-111 labelled]", "tested on": "Gastrin-releasing peptide receptor (Mus musculus, UniProt P21729)", "assay": "biodistribution", "system": "CF-1 mice, spleen", "setting": "intravenous, 1 h, with: bombesin 100 µg, blocking", "quantity": "tissue uptake", "value": "0.11 ± 0.04 %ID/g"}
{"Substance": "N=C(N)NCCC[C@@H]1NC(=O)[C@H](CCCCNC(=O)CC[C@H](NC(=O)CCOCCOCCOCCOCCNC(=O)CN2CCN(CC(=O)O)CCN(CC(=O)O)CCN(CC(=O)O)CC2)C(=O)NCCCC[C@@H]2NC(=O)[C@@H](Cc3ccccc3)NC(=O)[C@H](CC(=O)O)NC(=O)CNC(=O)[C@H](CCCNC(=N)N)NC2=O)NC(=O)[C@@H](Cc2ccccc2)NC(=O)[C@H](CC(=O)O)NC(=O)CNC1=O [indium-111 labelled]", "system": "athymic nude mice, female, U-87 MG glioma xenograft, spleen", "setting": "intravenous, 3 µCi, 24 h", "quantity": "tissue uptake", "value": "1.47 ± 0.35 %ID/g"}
{"Substance": "B2 (dmaW)", "tested on": "O=P(O)(O)OP(=O)(O)OCC1=CCCCC1", "assay": "steady-state kinetics", "setting": "pH 7.5, 35 °C", "quantity": "kcat/Km", "value": "16.7 ± 1.67 M⁻¹ s⁻¹"}
{"Substance": "B3", "tested on": "C[C@@]12CCC[C@@](C)(C(=O)OP(=O)(O)OC[C@H]3O[C@@H](n4cnc5c(N)ncnc54)[C@H](O)[C@@H]3O)[C@H]1C[C@@H](O)[C@]13C[C@H]4C[C@H](O[C@@]4(C)C1)[C@@H]23", "assay": "steady-state kinetics", "setting": "pH 7.8, 25 °C", "quantity": "kcat", "value": "10 s⁻¹"}
{"Substance": "CN[C@](C)(C[18F])C(=O)O", "tested on": "DU-145 tumour model", "system": "host not given, lung", "setting": "15 min, tumour-bearing", "quantity": "tracer uptake", "value": "3.6 %ID/g"}
{"Substance": "C[C@H]1COc2c(N3CCN(C)CC3)c(F)cc3c(=O)c(C(=O)N[C@@H](CCCNC(=N)N)C(=O)N[C@@H](Cc4ccc(-c5ccccc5)cc4)C(=O)N[C@@H](CCCNC(=N)N)C(=O)N[C@@H](Cc4ccc(-c5ccccc5)cc4)C(=O)N[C@@H](CCCNC(=N)N)C(N)=O)cn1c23", "tested on": "human erythrocytes", "setting": "25 µM, 1 h, 37 °C", "scale": "baseline: Triton X-100", "quantity": "hemolysis", "value": "0.97 ± 0.008%"}
{"Substance": "CCCC[C@H](NC(=O)CCCCCCCNC(=O)c1ccc(NN)nc1)C(=O)N[C@H]1CC(=O)NCCCC[C@@H](C(N)=O)NC(=O)[C@H](Cc2c[nH]c3ccccc23)NC(=O)[C@H](CCCNC(=N)N)NC(=O)[C@@H](Cc2ccccc2)NC(=O)[C@H](Cc2c[nH]cn2)NC1=O [technetium-99m labelled]", "system": "C57 mouse, B16/F1 melanoma, heart", "setting": "intravenous, 4 h", "quantity": "uptake", "value": "0.13 ± 0.09 %ID/g"}
{"Substance": "C=Cc1c(C)c2cc3nc(c4c5[nH]c(cc6nc(cc1[nH]2)C(C)=C6CC)c(C)c5C(=O)C4)[C@@H](CCC(=O)NCC(=O)N1CCC[C@H]1C(=O)N[C@@H](CC(C)C)C(=O)NCC(=O)N[C@@H](Cc1ccccc1)C(=O)N[C@@H](CCCNC(=N)N)C(=O)N[C@H](C(=O)NCC(=O)N[C@@H](CCCCN)C(N)=O)C(C)C)[C@@H]3C", "tested on": "OA patient chondrocytes", "assay": "flow cytometry, item: cellular uptake", "setting": "1 µM, 24 h", "quantity": "fluorescent cells", "value": "92 ± 3%"}
